Published values pooled from the literature.
Lines come from different studies, so protocols differ. ± gives the spread as reported.
UniProt O43603, sequence (whole entry, looked up): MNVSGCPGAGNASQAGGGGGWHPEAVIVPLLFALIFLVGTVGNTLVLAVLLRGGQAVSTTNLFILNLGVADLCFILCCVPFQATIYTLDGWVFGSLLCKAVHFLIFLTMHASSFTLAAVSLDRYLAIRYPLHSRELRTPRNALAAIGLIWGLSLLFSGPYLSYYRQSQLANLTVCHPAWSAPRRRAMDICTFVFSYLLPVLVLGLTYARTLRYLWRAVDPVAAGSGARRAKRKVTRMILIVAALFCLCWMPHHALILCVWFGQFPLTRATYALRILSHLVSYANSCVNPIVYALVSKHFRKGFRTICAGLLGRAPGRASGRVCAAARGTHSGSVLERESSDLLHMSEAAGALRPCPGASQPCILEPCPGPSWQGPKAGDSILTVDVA
UniProt P04629, sequence (whole entry, looked up): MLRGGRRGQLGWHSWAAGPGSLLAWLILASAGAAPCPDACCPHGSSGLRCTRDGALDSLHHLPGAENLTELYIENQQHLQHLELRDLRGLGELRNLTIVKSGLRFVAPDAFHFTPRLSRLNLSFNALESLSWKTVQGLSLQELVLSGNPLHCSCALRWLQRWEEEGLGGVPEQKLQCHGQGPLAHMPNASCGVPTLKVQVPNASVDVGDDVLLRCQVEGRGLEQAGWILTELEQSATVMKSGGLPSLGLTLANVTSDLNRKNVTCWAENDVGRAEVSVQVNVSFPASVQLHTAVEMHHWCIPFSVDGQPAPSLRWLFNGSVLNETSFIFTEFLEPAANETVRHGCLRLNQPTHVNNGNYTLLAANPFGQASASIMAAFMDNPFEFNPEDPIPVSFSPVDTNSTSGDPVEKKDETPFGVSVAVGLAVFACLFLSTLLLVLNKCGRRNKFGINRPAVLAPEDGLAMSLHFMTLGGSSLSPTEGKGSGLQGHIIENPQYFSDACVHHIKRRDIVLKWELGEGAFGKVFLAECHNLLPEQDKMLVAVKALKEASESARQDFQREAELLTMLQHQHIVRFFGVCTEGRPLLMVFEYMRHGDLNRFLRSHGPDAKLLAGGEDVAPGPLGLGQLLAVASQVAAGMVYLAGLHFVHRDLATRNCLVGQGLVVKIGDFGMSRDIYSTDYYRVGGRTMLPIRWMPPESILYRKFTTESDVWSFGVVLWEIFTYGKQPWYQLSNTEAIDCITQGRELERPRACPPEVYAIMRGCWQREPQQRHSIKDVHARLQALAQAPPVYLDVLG
UniProt P29317, sequence (whole entry, looked up): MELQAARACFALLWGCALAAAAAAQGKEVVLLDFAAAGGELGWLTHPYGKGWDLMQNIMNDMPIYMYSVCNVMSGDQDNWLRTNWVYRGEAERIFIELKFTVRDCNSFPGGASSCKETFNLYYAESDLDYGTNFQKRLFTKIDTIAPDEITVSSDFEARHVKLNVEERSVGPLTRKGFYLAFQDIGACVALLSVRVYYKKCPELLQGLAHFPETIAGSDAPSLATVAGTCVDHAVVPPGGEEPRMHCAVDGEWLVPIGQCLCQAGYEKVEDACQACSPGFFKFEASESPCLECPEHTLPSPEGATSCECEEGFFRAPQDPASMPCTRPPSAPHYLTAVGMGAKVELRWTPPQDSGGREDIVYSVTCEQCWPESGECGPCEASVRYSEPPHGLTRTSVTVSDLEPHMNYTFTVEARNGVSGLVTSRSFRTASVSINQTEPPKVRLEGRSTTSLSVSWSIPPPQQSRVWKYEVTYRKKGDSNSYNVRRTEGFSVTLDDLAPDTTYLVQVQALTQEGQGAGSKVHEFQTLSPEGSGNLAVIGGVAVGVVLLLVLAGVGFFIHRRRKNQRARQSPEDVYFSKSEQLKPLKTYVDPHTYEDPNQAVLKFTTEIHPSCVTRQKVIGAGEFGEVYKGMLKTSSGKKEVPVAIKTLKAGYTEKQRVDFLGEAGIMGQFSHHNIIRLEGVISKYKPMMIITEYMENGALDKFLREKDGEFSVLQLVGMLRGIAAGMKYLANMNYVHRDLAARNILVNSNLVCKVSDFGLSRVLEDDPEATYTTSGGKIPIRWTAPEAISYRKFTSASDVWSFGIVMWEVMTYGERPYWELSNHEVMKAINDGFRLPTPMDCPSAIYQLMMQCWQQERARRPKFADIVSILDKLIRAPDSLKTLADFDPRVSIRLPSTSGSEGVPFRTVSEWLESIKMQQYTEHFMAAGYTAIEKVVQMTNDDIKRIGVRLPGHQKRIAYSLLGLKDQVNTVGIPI

Compound | target or system | test | system | conditions | scale | measurement | result
COc1cc2c(Oc3ccc4[nH]c(C)cc4c3F)ccnc2cc1OCC1(N)CC1 |  |  | paediatric recurrent refractory sarcoma | 8 mg |  | grade 1 or 2 Dizzy | 0%
COc1ccc(N2C(=O)N(c3c(C)cccc3Cl)Cc3cnc(Nc4ccc(C5CCN(C)CC5)cc4OC)nc32)nc1 | EPHA2 (Homo sapiens, UniProt P29317) | kinase activity |  | 0.5 µM |  | inhibition | 91%
CC(C)N1CCC(NC2CCN(c3cccc(-c4cc5cc(F)ccc5[nH]4)c3)CC2)CC1 | HT-29 |  |  |  |  | CC50 | > 100 µM
CC[C@H](C)[C@@H]1NC(=O)[C@@H]2CCCN2C(=O)[C@H](CC(C)C)NC(=O)[C@H](CC(C)C)NC(=O)CNC(=O)[C@@H](NC(=O)[C@@H](NC(=O)[C@H](CC(=O)O)NC(=O)CNC(=O)[C@@H](NC(=O)[C@H](C)NC(=O)CNC(=O)[C@H](CCCCN)NC(=O)[C@H](CC(C)C)NC(=O)[C@H](CC(C)C)NC(=O)[C@H](CCCCN)NC(=O)CNC(=O)[C@@H](NC(=O)[C@@H](N)CC(C)C)C(C)C)C(C)C)C(C)C)CSSC[C@@H](C(=O)O)NC1=O |  | RNA-seq, refers to: Tnfaip2 | mouse, traumatic brain injury model, frontal cortex and hippocampus | dose not given | relative to: TBI alone | log2 fold change | -2.72
CC[C@H](C)[C@H](NC(=O)[C@H](Cc1ccccc1)NC(=O)[C@H](CCC(=O)O)NC(=O)[C@H](CCCNC(=N)N)NC(=O)[C@H](C)NC(=O)[C@H](C)NC(=O)[C@H](CCC(N)=O)NC(=O)[C@H](CCC(=O)O)NC(=O)[C@H](CCC(=O)O)NC(=O)[C@H](CC(C)C)NC(=O)[C@H](Cc1ccc(O)cc1)NC(=O)[C@H](CO)NC(=O)[C@H](CO)NC(=O)[C@@H](NC(=O)[C@H](CC(=O)O)NC(=O)[C@H](CO)NC(=O)[C@@H](NC(=O)[C@H](Cc1ccccc1)NC(=O)[C@@H](NC(=O)CNC(=O)[C@H](CCC(=O)O)NC(=O)[C@H](C)NC(=O)CCc1cnc[nH]1)[C@@H](C)O)[C@@H](C)O)C(C)C)C(=O)N[C@@H](C)C(=O)N[C@@H](Cc1c[nH]c2ccccc12)C(=O)N[C@@H](CC(C)C)C(=O)N[C@H](C(=O)N[C@@H](CCCCNC(=O)COCCOCCNC(=O)COCCOCCNC(=O)CC[C@H](NC(=O)CCCCCCCCCCCCCCCCC(=O)O)C(=O)O)C(=O)NCC(=O)N[C@@H](CCCNC(=N)N)C(=O)N[C@@H](CCCCNc1c(NCCCCCN(O)C(=O)CCC(=O)NCCCCCN(O)C(=O)CCC(=O)NCCCCCN(O)C(C)=O)c(=O)c1=O)C(=O)NCC(=O)NCC(=O)N[C@@H](CO)C(=O)N[C@@H](CCCCNc1c(NCCCCCN(O)C(=O)CCC(=O)NCCCCCN(O)C(=O)CCC(=O)NCCCCCN(O)C(C)=O)c(=O)c1=O)C(=O)O)C(C)C | GLP1R (Homo sapiens, UniProt P43220) | cAMP reporter gene, agonist, CRE luciferase | BHK | with Zr, 0% HSA |  | EC50 | 5.7 pM
COc1c(C)c2c(c(O)c1C/C=C(\C)CCC(=O)O)C(=O)OC2 | Squamous cancer cell lines | cell proliferation |  |  |  | IC50 | 0.282 µM
O=c1cc(-c2ccc(O)cc2)oc2cc(O)cc(O)c12 | SH-SY5Y Aβ-GFP cells, TRKB shRNA |  |  | 5 µM |  | neurite process number | 3.3
CCN(CC)c1ccc(C=NNC(=O)CSc2nc3ccccc3c(=O)n2Cc2ccc(S(N)(=O)=O)cc2)c(O)c1 | SF-295 | NCI five-dose screen |  |  |  | CC50 | > 100 µM
C[C@H]1CN(c2n[nH]c3nc(N[C@H]4CC[C@H](NS(=O)(=O)CCC(F)(F)F)CC4)ncc23)CCO1 | NTRK1 (Homo sapiens, UniProt P04629) | inhibitor, Kinobeads competition profiling |  | 0.032 µM | relative to: vehicle | relative abundance | 1.01
COc1ccc2c(c1)[nH]c1c(C)nccc12 | DU-145 | bisulfite pyrosequencing, refers to: RASSF1A promoter CpG site 29 |  | 10 µM, 16 h |  | DNA methylation | 95.8%
COc1c(CCC[P+](c2ccccc2)(c2ccccc2)c2ccccc2)cc2c(c1OC)OCO2.[I-] | OVCAR-8 | SRB |  |  |  | TGI | > -4 log M
Nc1ncnc2c1ncn2[C@@H]1O[C@@H]2COP(=O)(O)O[C@H]3[C@@H](O)[C@H](n4cnc5c(=O)[nH]cnc54)O[C@@H]3COP(=O)(O)O[C@H]2[C@H]1O | HFF-1 | RNA sequencing, refers to: Reactome Nucleobase catabolism |  | upregulated pathways | relative to: mock | fold enrichment | 8.89
Cn1cncc1C1=CN(c2ncnc3[nH]cnc23)CCS1 | SF-295 |  |  | CNS cancer |  | CC50 | > 200 µM
CN1CCN(C2(CNC3CCN(c4cccc(-c5cc6cc(F)ccc6[nH]5)c4)CC3)CCC2)CC1 | SF-268 |  |  |  |  | CC50 | 6.6 µM
COc1cc(CCC[P+](c2ccccc2)(c2ccccc2)c2ccccc2)c(OC)c2c1OCO2.[I-] | NCI-H460 | SRB |  |  |  | TGI | -5.25 log M
Oc1ccc(C2(c3ccc(O)cc3)c3ccccc3-c3ccccc32)cc1 | HepG2 spheroids | Hoechst flow cytometry |  | 40 µM, 24 h |  | S phase cells | 5.28 ± 1.33%
C/C=C(/C)C(=O)O[C@H]1C(C)=C2[C@H]([C@@H]1OC(=O)CCCCCCC)[C@@](C)(OC(C)=O)C[C@H](OC(=O)CCC)[C@@]1(O)[C@H]2OC(=O)[C@@]1(C)O | HEK-293T | RNA-seq GSEA, refers to: Hallmark mitotic spindle |  | 500 nM, 6 h | direction not given | normalized enrichment score | -1.03
Cc1cc(C(C)(C)c2ccc(O)c(C)c2)ccc1O | HepG2 spheroids | flow cytometry |  | concentration not given, 96 h |  | cell cycle distribution | no effect
O=c1c(O)c(-c2ccc(O)c(O)c2)oc2cc(O)cc(O)c12 | SH-SY5Y Aβ-GFP cells, TRKB shRNA |  |  | 5 µM |  | neurite length | 27.4 to 31.1 µm
CC(C)C[C@@H]1NC(=O)[C@H](CC(C)C)NC(=O)[C@H](Cc2c[nH]c3ccccc23)NC(=O)[C@H](CO)NC(=O)[C@H](Cc2c[nH]c3ccccc23)NC(=O)[C@@H]2CCCN2C(=O)[C@H](CC(C)C)NC(=O)[C@H](Cc2c[nH]cn2)NC(=O)[C@@H]2CCCN2C(=O)[C@H](CC(N)=O)NC(=O)[C@H](C)NC(=O)[C@H](Cc2ccc(O)cc2)NC(=O)[C@H](CS)NC(=O)[C@H](CCCCNC(=O)CN2CCN(CC(=O)O)CCN(CC(=O)O)CCN(CC(=O)O)CC2)NC1=O [lutetium-177 labelled] |  |  | Balb/c mouse, female, 4T1 tumour, lung | intravenous, 3.7 MBq, 1 h |  | tissue uptake | 0.14 ± 0.02 %ID
COc1cc(Nc2ncc(F)c(Nc3ccc4c(n3)NC(=O)C(C)(C)O4)n2)cc(OC)c1OC | GALR2 (Homo sapiens, UniProt O43603) |  |  |  |  | IC50 | > 10 µM

Some of these lines once more:
Compound | target or system | test | system | conditions | scale | measurement | result
Oc1ccc(C2(c3ccc(O)cc3)c3ccccc3-c3ccccc32)cc1 | HepG2 spheroids | Hoechst flow cytometry |  | 40 µM, 24 h |  | S phase cells | 5.28 ± 1.33%
